Experimental data collected from several papers.
Protocols differ between the studies behind these lines. Values joined by “and” are separate records of one study, mostly repeats; a detail may differ. ± marks the error that the study gave.

`c1ccc(-c2n[nH]cc2-c2ccnc3ccccc23)nc1`: “log2 fold change” -0.08 (KIN3 (Candida albicans); kinase binding, MIB/MS competition; Candida albicans lysate; 10 µM; baseline: DMSO).
`C=CC(=O)N1[C@H](c2ccc3c(c2)OCO3)c2[nH]c3ccccc3c2C[C@@H]1C(=O)N1CCN(C)CC1` has a relative co-enrichment of 101% (human cyclin E1 N112C-3xFLAG:CDK2; co-IP with TMT proteomics, measured: PRDX1; concentration not given, Q06830; baseline: wild type DMSO).
For `CC(C)c1ccc(N(C)c2ccc3c(c2)OCC[C@H]3CNc2cnccc2C(=O)O)cc1`, the IC50 was no less than 10 µM (Calu-3; cell viability, CellTiter-Glo; 7 days).
`COc1cc2c(NC3CCN(C(C)C)CC3)cc(N3CCOCC3)nc2cc1OCCCN1CCCC1`: “normalised protein abundance” -0.0149 and 0.243 and 0.0316 and 0.0501 and 0.273 and 0.257 and 0.0188 (TMT quantitative proteomics, measured: ALDOA; APP AD model mice, hippocampus; dose not given).
`CN1CCCNC(=O)c2cccc(c2)C(=O)NCCCN(C)CCCNc2cccc3c2C(=O)c2cccc(c2C3=O)NCCC1` — result for “log2 fold change”: 2.35 (SAS; RNA-Seq, measured: PBLD mRNA; 1 µM, 6 h; baseline: untreated cells).
Under “thrombin time prolongation”, `COC1OC(C)C(OS(=O)(=O)O)C(OC2OC(C)C(OS(=O)(=O)O)C(OC3OC(C)C(OS(=O)(=O)O)C(OC4OC(C)C(OS(=O)(=O)O)C(OS(=O)(=O)O)C4OS(=O)(=O)O)C3OS(=O)(=O)O)C2OS(=O)(=O)O)C1OS(=O)(=O)O` (stereo not drawn) is recorded as 0.9 fold (human plasma; 128 µg/mL; baseline: control).
For `COc1ccccc1-c1ccncc1C(=O)Nc1nnc(OCc2ccc(Cl)cc2)s1`, the colony survival was 0% (PEO1 BRCA2-mutant ovarian cancer; 0.5 µM, together with: olaparib 2 µM).
With `CCN(CC)CC(=O)Nc1cccc(-n2cc(-c3ccc4ccc(-c5cn(-c6cccc(NC(=O)CN(CC)CC)c6)nn5)cc4c3)nn2)c1` the fold regulation was 1.17 (RCC4; PCR angiogenesis array, measured: CXCL9; 5 x IC50, 2 h, normoxia; baseline: untreated).
For `Cc1ncsc1-c1ccc(C(C)NC(=O)C2CC(O)CN2C(=O)C(NC(=O)CCCCCCCCCCN2CCCC(Nc3ncc(Cl)c(Nc4ccccc4S(=O)(=O)C(C)C)n3)C2)C(C)(C)C)cc1` (stereo not drawn), “log2 fold change” read -2.15 (22Rv1; RNA-seq, measured: MOCS3 mRNA; concentration not given; baseline: DMSO).
`Cc1cccc2c1N(C(=O)n1ccnn1)CC2` has a plant height of 21.8 cm (Oryza sativa; concentration not given, average).
For `COC1CN([C@H]2CC[C@H]([C@@]3(C)Oc4c(Cl)cc(C(=O)NCc5c(SC)cc(C)[nH]c5=O)c(C)c4O3)CC2)C1`, “log2 fold change” read 3.44 (RNA-seq, measured: SRCIN1; human, whole blood; dose not given, 24 h; baseline: pretreatment baseline).
The PGE2 level of `COc1cc(O)ccc1CCC(c1ccc(O)cc1)c1cc2c(c(C)c1O)OC(c1ccc(O)cc1)CC2` (mixture of isomers) is reported as 26 ± 6 pg/mL (human blood; 10 µM, together with: A23187).
`COC1OC(C)C(OC2OC(C)C(OS(=O)(=O)O)C(OC3OC(C)C(OC4OC(C)C(OS(=O)(=O)O)C(OC5OC(C)C(OS(=O)(=O)O)C(OS(=O)(=O)O)C5OS(=O)(=O)O)C4OS(=O)(=O)O)C(OS(=O)(=O)O)C3OS(=O)(=O)O)C2OS(=O)(=O)O)C(OS(=O)(=O)O)C1OS(=O)(=O)O` (stereo not drawn) gave a thrombin time of 9.7 ± 0.8 s (human plasma; 128 µg/mL).
For `C=C(NC(=O)c1csc(-c2nc3c(cc2O)-c2nc(cs2)C(=O)NC(C(C)O)C(=O)NC(=C(C)OC)c2nc(cs2)C(=O)NC2c4nc(cs4)C(=O)NC(COC(=O)c4c5c6c(cccc6n4O)COC(=O)C(OC4CC(C)(O)C(N(C)C)C(C)O4)C2OC5)c2nc-3cs2)n1)C(N)=O` (stereo not drawn), the ED50 was 4.6 mg/kg (Streptococcus pneumoniae; -25, immunocompromised mice, lung infection; tid dosing).
`CNS(=O)(=O)Nc1nccc(Cc2c(C)c3ccc(Oc4ncccc4F)cc3oc2=O)c1F` has an IC50 of 0.0568 µM (Hs746T; cell viability; 7 days).
`COC1OC(C)C(OS(=O)(=O)O)C(OC2OC(C)C(OS(=O)(=O)O)C(OS(=O)(=O)O)C2OS(=O)(=O)O)C1OS(=O)(=O)O` (stereo not drawn) has a thrombin time of 10.1 ± 0.5 s (human plasma; 128 µg/mL).
With `C=CC(=O)Nc1cccc(Cn2ncc3cnc(Nc4cnn(CCOC)c4)nc32)c1` the binding was 73% (human JNK3; KINOMEscan; 100 nM; baseline: control).
For `COC1OC(C)C(OC2OC(C)C(OS(=O)(=O)O)C(OS(=O)(=O)O)C2O)C(OS(=O)(=O)O)C1O` (stereo not drawn), the thrombin time was 9.5 ± 0.3 s (human plasma; 128 µg/mL).
Under “log2 fold change”, `Cn1ncc2cc(-c3cncc(Cl)c3N3CCC4(CCNC4=O)CC3)ccc21` is recorded as 2.02 (LS174T; gene expression, microarray, measured: ANKRD37 mRNA; concentration not given, 24 h; baseline: untreated cells).
For `COC1OC(C)C(O)C(OC2OC(C)C(O)C(OC3OC(C)C(O)C(OC4OC(C)C(O)C(OC5OC(C)C(O)C(OC6OC(C)C(O)C(OC7OC(C)C(O)C(OC8OC(C)C(O)C(OC9OC(C)C(O)C(OC%10OC(C)C(O)C(OC%11OC(C)C(O)C(OS(=O)(=O)O)C%11OS(=O)(=O)O)C%10OS(=O)(=O)O)C9OS(=O)(=O)O)C8OS(=O)(=O)O)C7OS(=O)(=O)O)C6OS(=O)(=O)O)C5OS(=O)(=O)O)C4OS(=O)(=O)O)C3OS(=O)(=O)O)C2OS(=O)(=O)O)C1OS(=O)(=O)O` (stereo not drawn), “thrombin time prolongation” read 0.9 fold (human plasma; 128 µg/mL; baseline: control).
The remaining binding of `Nc1ncc(-c2cc(-c3cnn(CC(F)(F)F)c3)ncc2F)nc1C(=O)NC1CNCC(F)C1` (stereo not drawn) is reported as 87% (EPHB1; KINOMEscan; 1 µM; baseline: DMSO control).

Excerpt of the above:
With `C=CC(=O)Nc1cccc(Cn2ncc3cnc(Nc4cnn(CCOC)c4)nc32)c1` the binding was 73% (human JNK3; KINOMEscan; 100 nM; baseline: control).
For `COC1OC(C)C(OC2OC(C)C(OS(=O)(=O)O)C(OS(=O)(=O)O)C2O)C(OS(=O)(=O)O)C1O` (stereo not drawn), the thrombin time was 9.5 ± 0.3 s (human plasma; 128 µg/mL).
